# Assay results of several laboratories.
# Lines come from different studies, so protocols differ. ± marks the error that the study gave.
# OPRM1: Mu-type opioid receptor (OPRM1, Homo sapiens, UniProt P35372)
# UniProt P35372, sequence (whole entry, looked up): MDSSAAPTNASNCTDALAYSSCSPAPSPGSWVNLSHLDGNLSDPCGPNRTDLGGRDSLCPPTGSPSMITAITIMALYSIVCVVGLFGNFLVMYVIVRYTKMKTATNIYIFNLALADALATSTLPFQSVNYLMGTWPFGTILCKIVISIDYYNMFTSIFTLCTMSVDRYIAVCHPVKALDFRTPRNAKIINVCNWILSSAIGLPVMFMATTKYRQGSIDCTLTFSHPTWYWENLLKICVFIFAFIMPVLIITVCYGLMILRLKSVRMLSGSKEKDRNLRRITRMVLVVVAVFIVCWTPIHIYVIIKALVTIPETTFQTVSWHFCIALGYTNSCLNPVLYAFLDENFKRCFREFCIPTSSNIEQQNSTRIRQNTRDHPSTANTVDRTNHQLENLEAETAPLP
SMILES,tested on,assay,test system,setting,scale,endpoint,result
O=C(NCCN1CCCCC1)c1ccc(-c2ccc(N3CCSCC3)nc2)cc1,Vero-E6,CellTiter-Glo ATP,,"concentration not given, 72 h, second round 5-point","relative to: DMSO 0%, hyamine -100%, more negative, more toxic",cytotoxicity efficacy,-24.5%
C[C@H]1COCCN1c1nc(NCc2cccnc2C(F)(F)F)c2cccnc2n1,OPRM1,binding,,CEREP panel,,IC50,11 µM
Nc1ccc(-c2ccc3ncc4ccc(=O)n(-c5cccc(C(F)(F)F)c5)c4c3c2)cn1,human coronavirus OC43,virus-induced cell killing,MRC-5,maximum over 10 doses,,maximum inhibition,0.974%
Oc1cccc([C@@]23CCC[C@@H](C2)N(CCc2ccccc2)C[C@H]3O)c1 (relative stereo),OPRM1,antagonist,,,,Ke,12 nM
C[C@@H](NC(=O)[C@@H](N)Cc1ccc(O)cc1)C(=O)NCC(=O)N(C)[C@@H](Cc1ccccc1)C(=O)NCCO,OPRM1,,,,,Emax,25 ± 2.3%
CCCN(CCC)CCNC(=O)c1cc(Sc2ccc(Cl)cc2)nc2ccccc12,Vero-E6,CellTiter-Glo ATP,,"concentration not given, 72 h, first round 5-point","relative to: DMSO 0%, hyamine -100%, more negative, more toxic",cytotoxicity efficacy,0%
O=c1ccc2ccccc2o1,OPRM1,"radioligand binding, agonist",,10 µM,,inhibition,-8.84%
CN[C@]1(c2ccccc2Cl)CCCCC1=O,OPRM1,"radioligand binding, agonist, radioligand displacement",,30 µM,,inhibition,75%
COc1ccsc1CNCC[C@@]1(c2ccccn2)CCOC2(CCCC2)C1,OPRM1,agonist,HEK-293T,,,Emax,95 ± 3%
O=C(Nc1cnccc1Cl)N1CCN(Cc2ccc3c(c2)OC(F)(F)O3)CC1,OPRM1,"radioligand binding, inhibitor",,"50 µM, human, with: [3H]diprenorphine",,inhibition,16%
CC[C@@H]1CN2CCc3c([nH]c4cccc(OC)c34)[C@@H]2C[C@@H]1C(=CO)C(=O)OC,OPRM1,"G protein activation, agonist, BRET",,,relative to: DAMGO,Emax,80%
Cn1cccc1-c1cccnc1,OPRM1,binding,,50 µM,,inhibition,-23.7%
Oc1cccc(N2[C@@H]3CC[C@H]2CN(CCCc2ccccc2)C3)c1,OPRM1,"agonist, SAFETYscan",,,relative to: DAMGO,Emax,98.6%
CCCCCCC(C)(C)c1ccc(C2CC(O)CCC2CCCO)c(O)c1 (stereo not drawn),OPRM1,"forskolin-stimulated adenylyl cyclase, agonist",CHO cells,1 µM,,inhibition,8%
C=C(C)[C@H]1Cc2c(ccc3c2O[C@@H]2COc4cc(OC)c(OC)cc4[C@@H]2C3=O)O1,human coronavirus OC43,virus-induced cell killing,MRC-5,screen,,maximum inhibition,9.66%
CC[C@@H]1CN2CCc3c([nH]c4cccc(OC)c34)[C@@H]2C[C@@H]1/C(=C\OC)C(=O)O,OPRM1,"G protein activation, agonist, BRET",,up to 100 µM,,agonist activity,inactive
CC/C(=C(\c1ccc(O)cc1)c1ccc(OCCN(C)C)cc1)c1ccccc1,OPRM1,item: cAMP,CHO cells expressing human MOR,10 µM,relative to: basal,adenylyl cyclase activity increase,1%
C[C@@H](NC(=O)[C@@H](N)Cc1ccc(O)cc1)C(=O)NCC(=O)N(C)[C@@H](Cc1ccccc1)C(=O)NCCO,OPRM1,agonist,SH-SY5Y membranes,,relative to: basal,Emax,203 ± 11.7%

# Excerpt of the above:
SMILES,tested on,assay,test system,setting,scale,endpoint,result
CC/C(=C(\c1ccc(O)cc1)c1ccc(OCCN(C)C)cc1)c1ccccc1,OPRM1,item: cAMP,CHO cells expressing human MOR,10 µM,relative to: basal,adenylyl cyclase activity increase,1%
CCCN(CCC)CCNC(=O)c1cc(Sc2ccc(Cl)cc2)nc2ccccc12,Vero-E6,CellTiter-Glo ATP,,"concentration not given, 72 h, first round 5-point","relative to: DMSO 0%, hyamine -100%, more negative, more toxic",cytotoxicity efficacy,0%
